Measurements gathered from unrelated publications.
Lines come from different studies, so protocols differ. Values joined by “and” are separate records of one study, mostly repeats; a detail may differ. ± gives the spread as reported.

CCc1c(-c2ccccc2)c(-c2ccccc2)nn1-c1ccccc1-c1cccc(OCC(=O)O)c1  concentration (Sprague-Dawley rat, small intestine homogenate; oral, 10 mg/kg, 4 h): 3610 ng/mL and 2630 ng/mL
CC(C)(O)c1coc(S(=O)(=O)NC(=O)Nc2c3c(cc4c2CCC4)CCC3)c1  concentration (Sprague-Dawley rat, male, ankle joint tissue; oral, 2 mg/kg, 2 h): 17000 ng/g and 5190 ng/g and 6980 ng/g
CN(C(=O)n1cnc(-c2cccnc2)c1)[C@H]1CC[C@H](O)CC1  concentration (Wistar rat, medulla oblongata; oral, 10 mg/kg of BIA 10-2474, 1 h, single dose): 14.2 ± 0.9 ng/g
O=C1C[C@@H](c2ccc(O)cc2)Oc2cc(O)cc(O)c21  concentration (Sprague-Dawley rat, kidney; intravenous, 1 mg/kg, 12 h): 54.2 ± 13 ng/g
Cc1nccc2c1c(=O)n(C)c1cc(OC[C@@H](N)CC(C)C)c(C#N)cc21  concentration (rat, lumbar spinal cord; intrathecal, 3 µg, 30 min): 229 nM
CN(C(=O)n1cnc(-c2ccc[n+]([O-])c2)c1)[C@H]1CC[C@H](O)CC1  concentration (Wistar rat, midbrain; oral, 10 mg/kg/day of BIA 10-2474, 48 h, repeated 5 days): 14 ± 0.6 ng/g
COC(=O)[C@@H]1[C@H]2C[C@H]3c4[nH]c5ccccc5c4CCN3C[C@@H]2CC[C@@H]1O  concentration (rat, brain; intraperitoneal, 1 mg/kg, 1.5 h, added: tizanidine): 300 nM
COc1nc(-c2cc(C)c(N[C@@H](C)c3cc(F)cc(F)c3)nn2)ccc1-n1cnc(C)c1  concentration (rat Sprague-Dawley male, plasma; oral, 5 mg/kg daily for 9 days, 4 h after dose): 2020 ng/mL
